Published values collected from several papers.
“And” joins repeats or separate records; there may be more than shown. ± marks the error that the study gave.
WD repeat-containing protein 91 WD40 domain, residues 392–747: WD repeat-containing protein 91, WD40 domain, residues 392–747 (Homo sapiens, UniProt A4D1P6)
UniProt A4D1P6, sequence (whole entry, looked up): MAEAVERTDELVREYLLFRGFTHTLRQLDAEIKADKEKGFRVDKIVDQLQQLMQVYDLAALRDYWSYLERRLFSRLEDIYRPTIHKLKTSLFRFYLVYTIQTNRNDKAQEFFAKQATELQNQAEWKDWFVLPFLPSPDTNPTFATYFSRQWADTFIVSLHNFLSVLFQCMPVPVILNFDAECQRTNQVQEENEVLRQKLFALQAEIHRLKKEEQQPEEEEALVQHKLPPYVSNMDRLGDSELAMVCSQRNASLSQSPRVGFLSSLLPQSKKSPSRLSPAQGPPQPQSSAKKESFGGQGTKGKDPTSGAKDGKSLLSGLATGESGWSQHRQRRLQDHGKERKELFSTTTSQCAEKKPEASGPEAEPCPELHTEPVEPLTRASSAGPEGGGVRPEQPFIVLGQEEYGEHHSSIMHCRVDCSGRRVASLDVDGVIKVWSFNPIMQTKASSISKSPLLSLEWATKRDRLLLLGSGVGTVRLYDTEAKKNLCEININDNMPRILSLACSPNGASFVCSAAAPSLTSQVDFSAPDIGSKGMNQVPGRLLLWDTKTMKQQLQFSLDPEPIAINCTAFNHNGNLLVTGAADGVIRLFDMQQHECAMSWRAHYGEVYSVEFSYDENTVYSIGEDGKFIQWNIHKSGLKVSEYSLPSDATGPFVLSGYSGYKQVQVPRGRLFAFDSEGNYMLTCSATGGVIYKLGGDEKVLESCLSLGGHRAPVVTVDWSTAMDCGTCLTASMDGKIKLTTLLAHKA
Glutamate receptor 2: Glutamate receptor 2 (Homo sapiens, UniProt P42262)
ESR1: Estrogen receptor (ESR1, Homo sapiens, UniProt P03372)
Genome polyprotein NS3 helicase domain: Genome polyprotein, NS3 helicase domain (Hepatitis C virus genotype 1b, UniProt Q9WMX2)
CALM1 Ca2+-bound C-lobe: Calmodulin-1, Ca2+-bound C-lobe (CALM1, Homo sapiens, UniProt P0DP23)
UniProt O76090, sequence (whole entry, unmodified, looked up): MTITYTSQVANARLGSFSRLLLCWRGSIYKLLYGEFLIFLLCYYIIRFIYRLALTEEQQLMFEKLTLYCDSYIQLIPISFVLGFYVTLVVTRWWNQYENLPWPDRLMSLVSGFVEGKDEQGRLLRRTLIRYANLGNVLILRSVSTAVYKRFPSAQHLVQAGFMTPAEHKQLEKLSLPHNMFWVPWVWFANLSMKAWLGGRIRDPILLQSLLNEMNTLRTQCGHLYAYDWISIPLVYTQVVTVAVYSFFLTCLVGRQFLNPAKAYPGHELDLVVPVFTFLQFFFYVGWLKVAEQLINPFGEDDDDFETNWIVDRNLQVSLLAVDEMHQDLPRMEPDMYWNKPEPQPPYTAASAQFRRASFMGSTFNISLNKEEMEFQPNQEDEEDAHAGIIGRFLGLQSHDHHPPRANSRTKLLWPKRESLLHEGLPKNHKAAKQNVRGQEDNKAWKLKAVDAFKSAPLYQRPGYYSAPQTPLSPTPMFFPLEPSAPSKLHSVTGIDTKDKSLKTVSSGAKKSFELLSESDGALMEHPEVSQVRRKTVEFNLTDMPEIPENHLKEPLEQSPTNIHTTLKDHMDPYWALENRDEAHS
UniProt Q16774, sequence (whole entry, looked up): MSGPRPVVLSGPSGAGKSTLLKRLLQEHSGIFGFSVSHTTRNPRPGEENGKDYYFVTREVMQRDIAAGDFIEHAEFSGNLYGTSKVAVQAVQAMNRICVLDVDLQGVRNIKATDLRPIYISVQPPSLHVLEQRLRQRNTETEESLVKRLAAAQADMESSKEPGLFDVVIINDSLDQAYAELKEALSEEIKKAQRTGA
UniProt P31941, sequence (whole entry, looked up): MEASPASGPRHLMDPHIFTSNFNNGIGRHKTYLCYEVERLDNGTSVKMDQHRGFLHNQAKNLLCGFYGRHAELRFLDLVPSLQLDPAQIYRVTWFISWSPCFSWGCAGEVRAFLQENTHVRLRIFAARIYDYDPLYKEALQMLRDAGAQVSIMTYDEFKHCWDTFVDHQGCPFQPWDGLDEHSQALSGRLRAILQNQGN
UniProt Q9NWT6, sequence (whole entry, unmodified, looked up): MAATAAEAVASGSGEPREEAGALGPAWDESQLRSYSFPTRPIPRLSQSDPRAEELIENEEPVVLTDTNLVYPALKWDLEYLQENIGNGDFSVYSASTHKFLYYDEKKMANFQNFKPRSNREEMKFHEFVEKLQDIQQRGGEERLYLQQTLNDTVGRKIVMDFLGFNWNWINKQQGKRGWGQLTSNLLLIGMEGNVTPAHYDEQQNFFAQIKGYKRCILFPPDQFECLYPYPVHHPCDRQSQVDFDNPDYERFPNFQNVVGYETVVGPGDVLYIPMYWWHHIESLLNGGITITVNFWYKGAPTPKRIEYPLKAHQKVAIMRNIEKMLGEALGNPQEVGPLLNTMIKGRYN

Structure (SMILES)	target	assay	system	conditions	how to read	endpoint	result
O=O	Hypoxia-inducible factor 1-alpha inhibitor (HIF1AN, Homo sapiens, UniProt Q9NWT6, Q147A)	substrate, MALDI-TOF MS	–	pH 7.00, 37.0 °C, mutant Q147A, together with: CTAD peptide 80 µM, 2-oxoglutarate 100 µM	–	Km	758 ± 250 µM
N#CC1CCN(C(=O)c2ccc(NC3COC3)cc2)CC1	WD repeat-containing protein 91 WD40 domain, residues 392–747	binding, SPR single-concentration screen	–	45 µM	–	SPR response	-12.9 RU and -4.2 RU
Nc1ccc(C(=O)O)cc1	BEST1, with wild-type BEST1 (Homo sapiens, UniProt O76090, A10T)	whole-cell patch clamp	HEK293 co-expressing WT and A10T mutant	concentration not given, membrane potential -20 mV	–	current density	-5.55 pA/pF and -4.19 pA/pF and -5.93 pA/pF and -9.32 pA/pF and -2.05 pA/pF and -2.75 pA/pF
Cc1ccc(N2CC(C(N)=O)CC2=O)cc1 (centres unmarked)	Transducin-like enhancer protein 4 (TLE4, Homo sapiens, UniProt Q04727)	binding, affinity selection mass spectrometry	–	–	reference: other proteins in batch	fold enrichment	0.77
N#Cc1cccc2c1CC[C@H]2NC(=O)c1ccc(SCc2cn3ccccc3n2)cc1	WD repeat-containing protein 91 WD40 domain, residues 392–747	SPR	–	45 µM	–	binding	70% and 112%
Nc1ccn([C@H]2C[C@H](O)[C@@H](COP(=O)(O)OP(=O)(O)OP(=O)(O)O)O2)c(=O)n1	DNA polymerase lambda (POLL, Homo sapiens, UniProt Q9UGP5)	substrate	–	AP-site template	–	kcat	8.33e-05 s⁻¹
O=C(NC1CCCS(=O)(=O)c2ccccc21)c1ccc2nc(O)cnc2c1 (centres unmarked)	WD repeat-containing protein 91 (Homo sapiens, UniProt A4D1P6)	binding, SPR steady state	–	0.05859 µM	–	SPR response	-0.0183 RU
Nc1nc2c(ncn2[C@@H]2O[C@H](COP(=O)(O)O)[C@@H](O)[C@H]2O)c(=O)[nH]1	GUK1 (Homo sapiens, UniProt Q16774)	enzyme activity, NADH-coupled	–	62.5 µM, together with: KCl 150 mM	–	reaction velocity	0.0684 µM/s and 0.086 µM/s and 0.0705 µM/s
O=C(COP(=O)(O)O)[C@@H](O)[C@H](O)[C@H](O)COP(=O)(O)O	Villin-1 (Homo sapiens, UniProt P09327)	thermal proteome profiling, measured: VIL1	HepG2 cell lysate	concentration not given, 57 over 37 °C, mean	reference: compound over control	thermal stability ratio	0.638
CC(=O)N[C@H](C(=O)N[C@@H](CC(N)=O)C(=O)N[C@@H](CCCCN)C(=O)N1CCC[C@H]1C(=O)N[C@@H](CC(C)C)C(=O)N1CCC[C@H]1C(=O)N1CCC[C@H]1C(=O)N[C@@H](CC(C)C)C(=O)N1CCC[C@H]1C(=O)N[C@H](C(=O)N[C@@H](C)C(N)=O)C(C)C)C(C)C	Tyrosine-protein kinase Fyn, SH3 domain (FYN, Homo sapiens, UniProt P06241)	ligand binding, FTIR spectroscopy, measured: asymmetric stretch band A	–	pH 7.0, FYN complex, together with: 4 mM peptide	–	peak area	12 ± 0.3%
O=C(O)c1cc(O)c(O)c(O)c1	Uncharacterized protein (Chromohalobacter israelensis, UniProt Q1QT90)	binder, thermal shift	–	–	–	delta Tm	2.2 °C
CC(C)NCC(O)COc1cccc2ccccc12 (centres unmarked)	Glutamate receptor 2	ion current, agonist, SyncroPatch patch clamp	HEK293	3 µM	–	activation	3%
CCCCC/C=C/C(=O)CCc1ccc(O)c(OC)c1	ESR1	array formation	PRL-HeLa	–	reference: EC50 ERβ over EC50 ERα	selectivity ratio	0.731
CCCCC[C@H](O)/C=C/[C@H]1[C@H](O)CC(=O)[C@@H]1C/C=C\CCCC(=O)O	Prostaglandin E2 receptor EP1 subtype (PTGER1, Homo sapiens, UniProt P34995, R355A)	IP1 accumulation, agonist	AD293	1 h, EP1 R355A mutant	–	Emax	16.5 ± 5.95%
CCN1CCN(c2cc(N3CCN(CC)CC3)nc(NCCNc3ccnc4cc(Cl)ccc34)n2)CC1	Nuclear receptor subfamily 4 group A member 3, ligand-binding domain (Homo sapiens, UniProt Q92570)	reporter gene, Gal4 hybrid reporter	–	20 µM	reference: vehicle	activation	2.94 fold
NC(=O)c1ccc2[nH]ccc2c1	Genome polyprotein NS3 helicase domain	DNA binding, inhibitor	hepatitis C virus	100 µM, together with: Cy5-dT15 DNA	–	inhibition	0%
CCN(CC)Cc1cn(Cc2ccc(C(=O)N[C@@H]3CCc4c(C#N)cccc43)cc2)nn1	WD repeat-containing protein 91 WD40 domain, residues 392–747	SPR	–	45 µM	–	binding	123% and 129%
CN(C)C(=O)C(CCN1CCC(O)(c2ccc(Cl)cc2)CC1)(c1ccccc1)c1ccccc1	Calcium-activated potassium channel subunit alpha-1, with LRRC26 γ1 subunit (KCNMA1, Homo sapiens, UniProt Q12791)	ion current, inside-out patch, mean of individual fits	BKα/γ1 channel	0.1 µM, together with: nominally 0 Ca2+	–	V1/2	18 ± 5 mV
COc1c(O[C@@H]2O[C@H](CO)[C@@H](O)[C@H](O)[C@H]2O)cc2occ(-c3ccc(O)cc3)c(=O)c2c1O	ESR1	array formation	PRL-HeLa	–	reference: EC50 ERβ over EC50 ERα	selectivity ratio	28.4
CC(=O)[C@H]1CC[C@H]2[C@@H]3CC=C4C[C@@H](OS(=O)(=O)[O-])CC[C@]4(C)[C@H]3CC[C@]12C.[Na+]	Genome polyprotein NS3 helicase domain	DNA binding, inhibitor	hepatitis C virus	100 µM, together with: Cy5-dT15 DNA	–	inhibition	1%
C=CC(=O)N1CCC(COCC(=O)N2CCN(c3nc(-c4cnc(N)nc4C(F)F)nc(N4CCOC[C@@H]4C)n3)CC2)CC1	Serine/threonine-protein kinase RIO3 (RIOK3, Homo sapiens, UniProt O14730)	KINOMEscan	–	1 µM	–	remaining binding	100%

Structure (SMILES)	target	assay	system	conditions	how to read	endpoint	result
CC[C@@H]1[C@H](F)C(=O)N[C@@H]1COc1nccc2cc(C(N)=O)c(OC)cc12	Wee1-like protein kinase (WEE1, Homo sapiens, UniProt P30291)	ATP-site probe binding, ActivX profiling	THP-1 cell lysate	0.04 mM, Lys2 site	–	inhibition	-1.5%
O=c1c(O[C@@H]2O[C@H](CO)[C@@H](O)[C@H](O)[C@H]2O)c(-c2ccc(O)c(O)c2)oc2cc(O)cc(O)c12	ESR1	array formation	PRL-HeLa	–	reference: EC50 ERβ over EC50 ERα	selectivity ratio	0.756
CC[C@H](C)[C@H](NC(=O)[C@H](CCCCN)NC(=O)CNC(=O)[C@@H](NC(=O)[C@@H](NC(=O)[C@H](CCSC)NC(=O)[C@H](Cc1c[nH]cn1)NC(=O)CN)[C@@H](C)O)C(C)C)C(=O)N[C@@H](Cc1ccc(O)cc1)C(=O)N[C@@H](C)C(=O)N[C@@H](C)C(=O)N[C@@H](CCSC)C(=O)N[C@@H](CCSC)C(=O)N[C@H](C(=O)N[C@@H](CCSC)C(=O)N[C@@H](CCC(=O)O)C(=O)N[C@@H](C)C(=O)N[C@@H](Cc1ccc(O)cc1)C(=O)N[C@@H](CCCNC(=N)N)C(=O)N[C@@H](CCC(N)=O)C(=O)N[C@@H](CO)C(=O)N[C@@H](CCCCN)C(=O)N[C@@H](C)C(=O)N[C@@H](CCCCN)C(=O)N[C@@H](CCCCN)C(=O)N[C@@H](CC(C)C)C(=O)N[C@@H](CCC(N)=O)C(=O)N[C@@H](C)C(=O)N[C@@H](CCSC)C(=O)N[C@@H](CCCNC(=N)N)C(=O)O)[C@@H](C)CC	CALM1 Ca2+-bound C-lobe	binding, isothermal titration calorimetry	–	pH 7.4, 15 °C, C-lobe, CaV2.1 IQ domain, together with: Ca2+	–	ΔS	25.6 ± 1.2 cal/mol/K
O=C1NC(=O)C(c2ccccc2)(c2ccccc2)N1	Glutamate receptor 2	ion current, agonist, SyncroPatch patch clamp	HEK293	10 µM	–	activation	4%
CC[C@H](C)[C@H](NC(=O)[C@H](CCCCN)NC(=O)CNC(=O)[C@@H](NC(=O)[C@@H](NC(=O)[C@H](CCSC)NC(=O)[C@H](Cc1c[nH]cn1)NC(=O)CN)[C@@H](C)O)C(C)C)C(=O)N[C@@H](Cc1ccc(O)cc1)C(=O)N[C@@H](C)C(=O)N[C@@H](C)C(=O)N[C@@H](C)C(=O)N[C@@H](CCSC)C(=O)N[C@H](C(=O)N[C@@H](CCSC)C(=O)N[C@@H](CCC(=O)O)C(=O)N[C@@H](Cc1ccc(O)cc1)C(=O)N[C@@H](Cc1ccc(O)cc1)C(=O)N[C@@H](CCCNC(=N)N)C(=O)N[C@@H](CCC(N)=O)C(=O)N[C@@H](CO)C(=O)N[C@@H](CCCCN)C(=O)N[C@@H](C)C(=O)N[C@@H](CCCCN)C(=O)N[C@@H](CCCCN)C(=O)N[C@@H](CC(C)C)C(=O)N[C@@H](CCC(N)=O)C(=O)N[C@@H](C)C(=O)N[C@@H](CCSC)C(=O)N[C@@H](CCCNC(=N)N)C(=O)O)[C@@H](C)CC	CALM1 Ca2+-bound C-lobe	binding, isothermal titration calorimetry	–	pH 7.4, 15 °C, Ca2+-bound C-lobe, together with: CaV2.1 IQ peptide	–	stoichiometry	0.93 ± 0.23
COc1cc(/C=C/C(=O)C(=Cc2ccccc2)C(=O)/C=C/c2ccc(O)c(OC)c2)ccc1O	haemin	binding, isothermal titration calorimetry	–	pH 7.4, 37 °C	–	ΔG	-7.53 ± 0.402 kcal/mol
NCCCS(=O)(=O)O	Sodium- and chloride-dependent taurine transporter (SLC6A6, Homo sapiens, UniProt P31641, Y138A)	binding, microscale thermophoresis	–	1 mM, room temperature, together with: 50 nM labelled protein	higher = more binding	normalised MST signal	0.85
Oc1ccc(O)cc1	Genome polyprotein NS3 helicase domain	–	–	100 µM	–	inhibition	0%
COc1cc(O)c2c(c1)oc(=O)c1c3cc(O)c(O)cc3oc21	Alpha-glucosidase MAL12 (MAL12, Saccharomyces cerevisiae S288c, UniProt P53341)	circular dichroism	–	molar ratio 1:1	–	random coil content	40.8%
N#CC(C#N)=C(N)/C(C#N)=C/c1cc(O)c(O)c(O)c1	Genome polyprotein NS3 helicase domain	DNA binding, inhibitor	hepatitis C virus	100 µM, together with: Cy5-dT15 DNA	–	inhibition	19%
O=S(=O)(NC1CCN(c2ncnc3c2nc(-c2ccccc2Cl)n3-c2ccc(Cl)cc2)CC1)c1ccccc1F	Cannabinoid receptor 1 (CNR1, Homo sapiens, UniProt P21554)	antagonist, FLIPR calcium mobilisation	CHO-K1 expressing CNR1 and Gαq16	together with: CP55940	–	Ke	0.8 nM
Cc1cc(NC(=O)c2cccc(NC(=O)/C=C/CN(C)C)c2)ccc1Nc1nccc(-c2cccnc2)n1	Mitogen-activated protein kinase 9 (MAPK9, Homo sapiens, UniProt P45984)	enzyme activity, inhibitor	–	0.0007527 µM, unit not given	reference: vehicle	remaining activity	0.959
O=c1c(O)c(-c2cc(O)c(O)c(O)c2)oc2cc(O)cc(O)c12	Genome polyprotein NS3 helicase domain	DNA binding, inhibitor	hepatitis C virus	100 µM, together with: Cy5-dT15 DNA	–	inhibition	8%
O=c1nc(SCc2cc(F)cc(C(F)(F)F)c2)nc(SCc2csc3ccc(Cl)cc23)[nH]1	DNA topoisomerase 2-alpha (TOP2A, Homo sapiens, UniProt P11388)	decatenation	–	0.49 µM	–	mean decatenated DNA	0%
N#Cc1cccc2c1CC[C@H]2NC(=O)c1ccc(Nc2ncnc3ccccc23)cc1	WD repeat-containing protein 91, residues 392–747 (Homo sapiens, UniProt A4D1P6)	SPR dose-response titration	–	concentration not given, 1:1 binding model	–	binding	121% and 116%
Nc1ncnc2c1ncn2[C@@H]1O[C@H](COP(=O)(O)CP(=O)(O)OP(=O)(O)O)[C@@H](O)[C@H]1O	P2X purinoceptor 1 (P2RX1, Homo sapiens, UniProt P51575, L218T)	saturation binding	HEK293	52 nM	–	specific binding	2950 CCPM and 3480 CCPM
CCC1(O)CCCN(C(=O)c2ccc(-c3ccc(F)c(NC(=O)CCl)c3)cc2)C1 (centres unmarked)	DNA dC->dU-editing enzyme APOBEC-3A (Homo sapiens, UniProt P31941)	covalent adduct, intact protein MS	–	3 h, 20-fold excess, 500 µM	–	unmodified protein	0%
COC(=O)C1=C(C)NC(C)=C(C(=O)OC(C)(C)CN(C)CCC(c2ccccc2)c2ccccc2)C1c1cccc([N+](=O)[O-])c1.COC(=O)C1=C(C)NC(C)=C(C(=O)OC(C)(C)CN(C)CCC(c2ccccc2)c2ccccc2)C1c1cccc([N+](=O)[O-])c1.Cl.Cl.O (centres unmarked)	Genome polyprotein NS3 helicase domain	DNA binding, inhibitor	hepatitis C virus	100 µM, together with: Cy5-dT15 DNA	–	inhibition	3%
N=C(N)N	N-alpha-acetyltransferase 80 (NAA80, Homo sapiens, UniProt Q93015)	substrate, DTNB	–	2 mM, 30 min, 37 °C, together with: acetyl-CoA 500 µM	–	product formation	1.36 µM
C[C@]12CC[C@@H]3c4ccc(O)cc4C[C@@H](CCCCCCCCC[S+]([O-])CCCC(F)(F)C(F)(F)F)[C@H]3[C@@H]1CC[C@@H]2O (some centres unmarked)	ESR1	antagonist, CALUX reporter	U2OS	3e-05 µg/mL	–	antagonist response	25.2%
